Published values collected from several papers.
Parts stem from different laboratories: compare values within a part only. Values joined by “and” are separate records of one study, mostly repeats; a detail may differ.
Sequence of UniProt Q8IYT8 (whole entry, looked up): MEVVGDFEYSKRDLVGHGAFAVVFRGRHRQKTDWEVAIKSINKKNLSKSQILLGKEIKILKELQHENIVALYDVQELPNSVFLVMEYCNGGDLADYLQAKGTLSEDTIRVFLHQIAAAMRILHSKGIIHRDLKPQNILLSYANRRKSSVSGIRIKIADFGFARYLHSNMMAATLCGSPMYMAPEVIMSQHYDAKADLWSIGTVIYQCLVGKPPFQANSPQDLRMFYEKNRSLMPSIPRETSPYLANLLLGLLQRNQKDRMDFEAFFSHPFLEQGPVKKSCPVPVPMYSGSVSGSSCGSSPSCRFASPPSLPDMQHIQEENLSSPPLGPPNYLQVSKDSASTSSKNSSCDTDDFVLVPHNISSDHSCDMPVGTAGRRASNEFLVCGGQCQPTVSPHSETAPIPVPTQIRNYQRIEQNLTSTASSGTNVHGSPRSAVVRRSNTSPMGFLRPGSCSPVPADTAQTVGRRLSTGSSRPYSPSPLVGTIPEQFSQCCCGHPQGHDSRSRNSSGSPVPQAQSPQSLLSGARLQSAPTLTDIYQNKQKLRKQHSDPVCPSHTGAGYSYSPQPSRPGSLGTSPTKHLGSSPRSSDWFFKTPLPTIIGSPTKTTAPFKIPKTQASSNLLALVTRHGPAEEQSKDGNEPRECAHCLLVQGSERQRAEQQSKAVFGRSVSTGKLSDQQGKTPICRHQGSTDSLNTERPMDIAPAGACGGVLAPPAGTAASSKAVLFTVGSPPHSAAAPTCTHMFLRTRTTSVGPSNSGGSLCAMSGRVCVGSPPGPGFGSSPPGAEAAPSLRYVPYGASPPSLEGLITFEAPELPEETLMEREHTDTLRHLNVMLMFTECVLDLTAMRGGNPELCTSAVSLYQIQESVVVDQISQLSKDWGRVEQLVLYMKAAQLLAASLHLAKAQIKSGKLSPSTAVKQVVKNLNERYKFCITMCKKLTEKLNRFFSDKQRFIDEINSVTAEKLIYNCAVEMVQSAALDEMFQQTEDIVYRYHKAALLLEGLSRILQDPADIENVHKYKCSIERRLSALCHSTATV
Sequence of UniProt Q02156 (whole entry, looked up): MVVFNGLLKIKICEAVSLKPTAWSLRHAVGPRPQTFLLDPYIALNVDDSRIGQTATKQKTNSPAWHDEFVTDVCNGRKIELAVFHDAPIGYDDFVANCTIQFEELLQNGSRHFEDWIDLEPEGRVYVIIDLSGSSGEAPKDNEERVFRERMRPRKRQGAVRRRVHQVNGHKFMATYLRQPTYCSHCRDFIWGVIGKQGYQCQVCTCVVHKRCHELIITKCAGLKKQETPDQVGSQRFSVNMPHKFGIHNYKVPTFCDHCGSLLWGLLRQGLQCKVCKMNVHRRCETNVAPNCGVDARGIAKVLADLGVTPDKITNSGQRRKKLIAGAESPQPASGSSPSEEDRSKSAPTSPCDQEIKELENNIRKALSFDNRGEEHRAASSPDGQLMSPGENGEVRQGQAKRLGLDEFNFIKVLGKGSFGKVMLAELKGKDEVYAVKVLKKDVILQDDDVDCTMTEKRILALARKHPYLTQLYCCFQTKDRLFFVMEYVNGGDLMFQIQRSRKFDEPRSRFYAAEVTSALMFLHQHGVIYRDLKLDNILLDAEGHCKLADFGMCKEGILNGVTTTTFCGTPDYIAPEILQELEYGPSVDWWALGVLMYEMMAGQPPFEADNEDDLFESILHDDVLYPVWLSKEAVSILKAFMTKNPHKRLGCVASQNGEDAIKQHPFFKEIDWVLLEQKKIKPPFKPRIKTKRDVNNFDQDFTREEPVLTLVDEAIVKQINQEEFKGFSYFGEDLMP
Sequence of UniProt Q9BX84 (whole entry, looked up): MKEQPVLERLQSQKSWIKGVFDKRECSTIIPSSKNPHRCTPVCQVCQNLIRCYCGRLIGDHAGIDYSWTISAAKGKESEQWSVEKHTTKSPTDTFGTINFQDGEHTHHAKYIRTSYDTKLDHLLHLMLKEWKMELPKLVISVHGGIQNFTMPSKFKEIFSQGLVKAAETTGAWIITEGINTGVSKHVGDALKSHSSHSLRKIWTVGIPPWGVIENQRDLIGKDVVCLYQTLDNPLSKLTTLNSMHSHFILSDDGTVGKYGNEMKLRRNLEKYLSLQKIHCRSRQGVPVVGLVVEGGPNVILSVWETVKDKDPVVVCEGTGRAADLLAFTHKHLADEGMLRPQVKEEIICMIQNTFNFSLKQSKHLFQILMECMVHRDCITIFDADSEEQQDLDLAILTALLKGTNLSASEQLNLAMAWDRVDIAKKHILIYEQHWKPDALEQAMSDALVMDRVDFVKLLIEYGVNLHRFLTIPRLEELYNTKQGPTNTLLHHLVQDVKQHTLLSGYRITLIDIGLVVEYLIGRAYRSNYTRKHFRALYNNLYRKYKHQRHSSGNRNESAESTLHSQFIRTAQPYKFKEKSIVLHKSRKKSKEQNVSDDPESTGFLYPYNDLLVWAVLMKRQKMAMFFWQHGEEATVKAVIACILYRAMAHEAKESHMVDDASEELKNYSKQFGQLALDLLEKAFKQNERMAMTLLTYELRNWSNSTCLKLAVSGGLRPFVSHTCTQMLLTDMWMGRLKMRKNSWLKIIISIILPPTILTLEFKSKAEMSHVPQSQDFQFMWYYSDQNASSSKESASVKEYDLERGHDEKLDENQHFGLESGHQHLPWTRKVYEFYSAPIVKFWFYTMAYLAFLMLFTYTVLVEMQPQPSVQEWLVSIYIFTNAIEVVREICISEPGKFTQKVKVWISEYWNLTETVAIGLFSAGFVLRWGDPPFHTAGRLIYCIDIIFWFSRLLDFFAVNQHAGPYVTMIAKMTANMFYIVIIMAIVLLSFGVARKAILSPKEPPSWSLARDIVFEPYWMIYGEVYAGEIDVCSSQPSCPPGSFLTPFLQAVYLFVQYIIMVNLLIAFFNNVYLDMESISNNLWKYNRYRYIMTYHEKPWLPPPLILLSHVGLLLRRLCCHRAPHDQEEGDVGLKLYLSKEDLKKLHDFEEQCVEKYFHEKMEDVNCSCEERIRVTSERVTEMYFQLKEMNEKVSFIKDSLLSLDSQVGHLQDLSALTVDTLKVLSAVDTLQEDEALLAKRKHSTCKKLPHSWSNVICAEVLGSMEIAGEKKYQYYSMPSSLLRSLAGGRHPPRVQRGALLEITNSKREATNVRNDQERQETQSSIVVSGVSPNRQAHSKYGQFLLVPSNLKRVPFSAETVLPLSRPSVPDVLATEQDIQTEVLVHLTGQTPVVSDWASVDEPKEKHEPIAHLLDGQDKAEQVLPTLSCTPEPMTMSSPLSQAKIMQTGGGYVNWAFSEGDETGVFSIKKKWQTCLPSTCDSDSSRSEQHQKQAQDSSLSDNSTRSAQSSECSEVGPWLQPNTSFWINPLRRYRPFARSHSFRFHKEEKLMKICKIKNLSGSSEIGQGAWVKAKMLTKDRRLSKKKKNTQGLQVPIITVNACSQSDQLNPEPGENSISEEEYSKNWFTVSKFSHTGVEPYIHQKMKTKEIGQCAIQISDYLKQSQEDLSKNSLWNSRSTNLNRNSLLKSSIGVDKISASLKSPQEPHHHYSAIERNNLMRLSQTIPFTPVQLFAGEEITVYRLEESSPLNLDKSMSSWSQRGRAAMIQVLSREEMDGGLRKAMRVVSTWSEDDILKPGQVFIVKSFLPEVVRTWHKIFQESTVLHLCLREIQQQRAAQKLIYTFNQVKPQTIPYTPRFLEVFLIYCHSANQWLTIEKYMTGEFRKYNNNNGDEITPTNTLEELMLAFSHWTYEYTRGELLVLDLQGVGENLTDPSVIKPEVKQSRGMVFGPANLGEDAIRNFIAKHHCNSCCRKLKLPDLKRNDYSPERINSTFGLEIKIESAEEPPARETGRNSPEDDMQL

Series 1
Cell line: mouse MPNST tumor cells
Method: high-content nuclear imaging
Measured: cell number
Concentration: 10 µM
Time: 12 h
Setting: mean of 2 replicates
Baseline: plate mean
Direction: higher = more cells
Endpoint: nuclei count
CN(C)CCc1c[nH]c2ccc(Cn3cncn3)cc12: 1.1 z-score and 0.756 z-score
CC(C)c1cnn2c(NCc3ccccc3)cc(NCCCCCCN)nc12: -0.625 z-score
c1ccc(-c2ccc(C(c3ccccc3)n3ccnc3)cc2)cc1 (stereo not shown): 1.47 z-score
COc1ccccc1O: -0.498 z-score
O=C1NC(=O)c2cc(Nc3ccc(F)cc3)c(Nc3ccc(F)cc3)cc21: 3.19 z-score
CNCC(O)c1ccc(OC(=O)C(C)(C)C)c(OC(=O)C(C)(C)C)c1 (stereo not shown): 4 z-score
Cc1cc(OCC(=O)O)cc(C)c1Cc1ccc(O)c(C(C)C)c1: 1.35 z-score
CC(=O)NCCSc1nc2cscc2c(=O)n1-c1ccc(OCC(F)(F)F)cc1: 2.53 z-score

Series 2
Target: Calcium/calmodulin-dependent protein kinase type 1 (CAMK1, Homo sapiens, UniProt Q14012)
Sequence of UniProt Q14012 (whole entry, looked up): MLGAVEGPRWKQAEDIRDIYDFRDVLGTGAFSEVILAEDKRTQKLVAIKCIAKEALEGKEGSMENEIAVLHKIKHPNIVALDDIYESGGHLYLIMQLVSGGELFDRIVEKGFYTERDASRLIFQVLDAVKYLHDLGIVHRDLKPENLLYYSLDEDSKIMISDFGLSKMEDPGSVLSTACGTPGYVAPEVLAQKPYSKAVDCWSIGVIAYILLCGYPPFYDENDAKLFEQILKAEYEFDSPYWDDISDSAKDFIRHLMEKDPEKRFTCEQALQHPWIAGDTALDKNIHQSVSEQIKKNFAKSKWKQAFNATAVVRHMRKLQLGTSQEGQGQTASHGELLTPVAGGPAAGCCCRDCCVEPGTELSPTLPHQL
Effect on: enzyme activity
Mode: inhibitor
Concentration: 0.5 µM
Baseline: control
Endpoint: remaining activity
COc1cc2nccc(Oc3ccc(NC(=S)NC(=O)c4ccccc4C)cc3)c2cc1OC: 101%
Nc1[nH]nc2nc3ccccc3nc12: 94.4%
O=C(O)c1ccc2c3c1cccc3c(=O)n1c3ccccc3nc21: 101%
CO[C@H]1C[C@@H]2CC[C@@H](C)[C@@](O)(O2)C(=O)C(=O)N2CCCC[C@H]2C(=O)O[C@H]([C@H](C)C[C@@H]2CC[C@@H](O)[C@H](OC)C2)CC(=O)[C@H](C)/C=C(\C)[C@@H](O)[C@@H](OC)C(=O)[C@H](C)C[C@H](C)/C=C/C=C/C=C/1C: 111%
N#CC(C#N)=C(N)/C(C#N)=C/c1ccc(O)cc1: 97.2%
Oc1ccc(-c2nc(-c3ccncc3)c(-c3ccc(F)cc3)[nH]2)cc1: 108%
Cn1c2ccccc2c2c3c(c4c5ccccc5n(CCC#N)c4c21)CNC3=O: 94.2%
O=C(Nc1cccc(Nc2cc(Nc3cccc(C(F)(F)F)c3)ncn2)c1)C1CC1: 108%
O=C1NC(=O)C(c2cn(CCCn3ccnc3)c3ccccc23)=C1Nc1ccccc1: 106%
COc1ccc(C(=O)Nc2sc3c(c2C(N)=O)CCCC3)cc1OC: 90.9%
COc1ccc(CNC(=O)Nc2ncc([N+](=O)[O-])s2)cc1: 101%
OCC(O)CCON=C1C(c2c(O)[nH]c3ccccc23)=Nc2ccccc21 (stereo not shown): 76%
Nc1ccc2ncnc(NCCc3ccc(Oc4ccccc4)cc3)c2c1: 107%
Cc1ccc(NC(=O)c2ccc(CN3CCN(C)CC3)cc2)cc1Nc1nc(-c2cccnc2)cs1: 102%
NCCNc1ncc(C(N)=O)c(Nc2cccc(C(F)(F)F)c2)n1: 60.9%

Series 3
SMILES: Cc1cc2c(C(N)=O)c(N)n(-c3c(C)ccc(O)c3C)c2nc1C
Endpoint: inhibition
SRC: Proto-oncogene tyrosine-protein kinase Src (SRC, Homo sapiens, UniProt P12931)
SRC; enzyme activity, inhibitor, TR-FRET; 1.111 µM: 99.1%
LN-229; cell proliferation; 13.72 nM: -5.97% and -6.09% and -9.41%
SRC; enzyme activity, inhibitor, TR-FRET; 4.572 nM: 44%
MDA-MB-436; cell proliferation; 1.52 nM: -3.1% and -6.87% and -1.49%
HuCCT-1; cell proliferation; 41.15 nM: 0.15% and 2.54% and 3.52%
SRC; kinase activity, inhibitor, HTRF; 0.01372 µM: 68.6%

Series 4
Compound: COc1ccc2cc(OCC3(C(=O)O)CN(C(=O)c4ccc(F)cc4)C3)ccc2c1
Effect on: cell-free assay
Method: competition with immobilised ligand
Concentration: 1 µM
Endpoint: remaining binding
Serine/threonine-protein kinase ULK2 (ULK2, Homo sapiens, UniProt Q8IYT8): 89%
Serine/threonine-protein kinase ULK1 (ULK1, Homo sapiens, UniProt O75385): 92%
Phosphatidylinositol 4,5-bisphosphate 3-kinase catalytic subunit alpha isoform (PIK3CA, Homo sapiens, UniProt P42336, I800L): 90%
Transient receptor potential cation channel subfamily M member 6 (TRPM6, Homo sapiens, UniProt Q9BX84): 98%
Protein kinase C epsilon type (PRKCE, Homo sapiens, UniProt Q02156): 100%

Repeated from above (series 4):
Serine/threonine-protein kinase ULK1 (ULK1, Homo sapiens, UniProt O75385): 92%
Phosphatidylinositol 4,5-bisphosphate 3-kinase catalytic subunit alpha isoform (PIK3CA, Homo sapiens, UniProt P42336, I800L): 90%
Transient receptor potential cation channel subfamily M member 6 (TRPM6, Homo sapiens, UniProt Q9BX84): 98%
Protein kinase C epsilon type (PRKCE, Homo sapiens, UniProt Q02156): 100%
